# Assay results from different studies.
# Compare with care: the assays were run in different laboratories. “And” joins repeats or separate records; there may be more than shown. Numbers after ± are the reported error.
SMILES,cell line,test,conditions,scale,endpoint,value
CC[C@H](CO)Nc1nc(NCc2ccc(-c3ccccn3)cc2)c2ncn(C(C)C)c2n1,IMR-32,Western blot,5 µM,,time to MYCN down-regulation,< 6 h
Cc1cn([C@@H]2O[C@H](CO)[C@@H](O)[C@H]2O)c(=O)nc1N,HBL-1,,"0.1 µM, 120 h",,viability,87.1%
CCn1cc(-c2cc(Cn3ccnc3)cc3c2CCN([C@H](c2cc(OC)ccn2)C2CC2)C3=O)c(C(F)(F)F)n1,ChaGo-K-1,"cell growth, inhibitor",120 h,,EC50,13.2 µM
Fc1ccc(-c2nc3n(c2-c2ccncc2)CCS3)cc1,HeLa expressing Ub(G76V)-GFP,"Ub(G76V)-GFP degradation, cycloheximide chase",12 µM,,inhibition,17%
Cc1cc(-c2ccccc2)n(-c2nc(-c3ccc(Cl)cc3)c3c(NC(=O)c4ccccc4)nnc-3[nH]2)n1,Hs-578T,SRB,"10 µM, NCI60 single-dose screen",baseline: untreated,cell growth,70.5%
CCc1cccc(CC)c1NC(=O)N1Cc2n[nH]c(NC(=O)c3ccc(N4CCN(C)CC4)cc3)c2C1,BT-12,"cell viability, MTT","10 µM, 72 h",,inhibition,81.6%
Cc1cc(Nc2ncc(Cl)c(Nc3ccccc3S(=O)(=O)C(C)C)n2)c(OC(C)C)cc1C1CCNCC1,CLB-BAR,"phosphoproteomics LC-MS/MS, refers to: GAB1 phosphorylation","200 nM, 60 min",baseline: untreated,log2 fold change,-6.24
O=C(O)CNC(=O)C(=O)O,HBL-1,,"0.1 µM, 120 h",,viability,110%
COc1cccc2c1C(=O)c1c(O)c3c(c(O)c1C2=O)C[C@@](O)(C(C)=O)C[C@@H]3O[C@H]1C[C@H](N)[C@H](O)[C@H](C)O1,BT-12,"cell viability, MTT","10 µM, 72 h",,inhibition,94.3%
O=c1ncn2nc(Sc3ccc(F)cc3F)ccc2c1-c1c(Cl)cccc1Cl,iCell cardiomyocytes hiPSC-derived,impedance,"concentration not given, 2 h",baseline: vehicle,beat amplitude,94.1%
CC1(C)CCC(CN2CCN(c3ccc(C(=O)NS(=O)(=O)c4ccc(NCC5CCOCC5)c([N+](=O)[O-])c4)c(Oc4cnc5[nH]ccc5c4)c3)CC2)=C(c2ccc(Cl)cc2)C1,THP-1,"annexin V/PI flow cytometry, refers to: annexin V+/PI-","0.8 µM, 24 h",,early apoptotic cells,3.5%
Cc1ccc(C(=O)Nc2ccc(S(=O)(=O)O)c3cc(S(=O)(=O)O)cc(S(=O)(=O)O)c23)cc1NC(=O)c1cccc(NC(=O)Nc2cccc(C(=O)Nc3cc(C(=O)Nc4ccc(S(=O)(=O)O)c5cc(S(=O)(=O)O)cc(S(=O)(=O)O)c45)ccc3C)c2)c1,HBL-1,,"0.5 µM, 120 h",,viability,113%
COc1cnc2cccc(N3CCc4c(cc(Cn5ccnc5C)cc4-c4cn(C)nc4C(F)(F)F)C3=O)c2c1,SU-DHL-5,"cell growth, inhibitor",120 h,,EC50,0.0173 µM
O=C(O)c1ccc(O)c2ncccc12,HBL-1,,"0.5 µM, 120 h",,viability,122%
O=C1C(Cl)=C(N2C(=O)CCC2=O)C(=O)c2ccccc21,HeLa expressing Ub(G76V)-GFP,"Ub(G76V)-GFP degradation, cycloheximide chase",12 µM,,inhibition,7%
CC(C)(C)C(=O)OCOP(=O)(COCCn1cnc2c(N)ncnc21)OCOC(=O)C(C)(C)C,BT-12,"cell viability, MTT","10 µM, 72 h",,inhibition,90.9%
O=C(C[C@@H](C(F)F)n1ccc(F)n1)N1CCC(O)(Cn2cnc3c(cnn3-c3ccc(F)cc3)c2=O)CC1,CHP-212 parental (wild-type USP7),PI flow cytometry,"0.3 µM, 24 h",,cells in G1 phase,65.8% and 71.1% and 78.2%
CC(NC(=O)c1ccccc1/N=C/c1c(O)ccc2ccccc12)c1ccccc1 (centres unmarked),HBL-1,,"0.1 µM, 120 h",,viability,124%
CC/C(=N\NC(=O)NCc1cccc(O)c1)c1ccc(O)c(C)c1O,SK-OV-3,"Western blot, refers to: TAZ","10 µM, 3 h, 3D gellan gum culture, unit not given",baseline: β-actin,protein level,1.57 ± 0.62
Clc1ccc(N/N=C(\c2ccccc2)c2ccccn2)nc1,HBL-1,,"0.1 µM, 120 h",,viability,16.1%
C[C@]12CCCN1CC1=NNC(=O)c3cc(F)cc4[nH]c2c1c34,HGC-27 gastric cancer cells,cell viability,"concentration not given, added: with temozolomide",,EC50,4.9 µM
Nc1ccccc1NC(=O)c1ccc(CNC(=O)OCc2cccnc2)cc1,HBL-1,,"1 µM, 120 h",,viability,4.36%
O=C(Nc1nc2ccccc2n1CCN1CCOCC1)c1cccc([N+](=O)[O-])c1,HeLa expressing Ub(G76V)-GFP,"Ub(G76V)-GFP degradation, inhibitor, cycloheximide chase",12 µM,,inhibition,43%
CCn1cc(-c2cc(Cn3ccoc3=N)cc3c2CCN([C@@H](C)c2cc(OC)ccn2)C3=O)c(C(F)(F)F)n1,KNS-62,"cell growth, inhibitor",120 h,,EC50,6.94 µM
Cn1cc(-c2ccc(-c3cncc(Cl)c3N3CCC4(CCNC4=O)CC3)cc2)cn1,COLO 205,"gene expression, microarray, refers to: TUBD1 mRNA","concentration not given, 6 h",baseline: untreated cells,log2 fold change,-1.72
CC(C)N(C[C@H]1O[C@@H](n2cnc3c(N)ncnc32)[C@H](O)[C@@H]1O)[C@H]1C[C@@H](CCc2nc3cc(C(C)(C)C)ccc3[nH]2)C1,HBL-1,,"0.1 µM, 120 h",,viability,135%
CCN1/C(=C/C(C)=O)Sc2ccc(OC)cc21,HeLa expressing Ub(G76V)-GFP,"Ub(G76V)-GFP degradation, cycloheximide chase",12 µM,,inhibition,25%
NC(=O)NOCCCCCCCCCCCCCC[P+](c1ccccc1)(c1ccccc1)c1ccccc1.O=C([O-])C(F)(F)F,"mouse CD4 T cells, reporter","IFNγ-YFP expression, flow cytometry",144 h,,concentration at maximal effect,1.5 µM
O=C(/C=C/C=C/C=C/C1CCCCC1)NC1=C[C@@](O)(/C=C/C=C/C=C/C(=O)NC2=C(O)CCC2=O)[C@@H]2O[C@@H]2C1=O,ialm,"cell growth, inhibitor, CellTiter-Glo luminescence",78 h,baseline: day 0 cell count,GI50,13.9 µM

# Repeated from above:
SMILES,cell line,test,conditions,scale,endpoint,value
Cc1ccc(C(=O)Nc2ccc(S(=O)(=O)O)c3cc(S(=O)(=O)O)cc(S(=O)(=O)O)c23)cc1NC(=O)c1cccc(NC(=O)Nc2cccc(C(=O)Nc3cc(C(=O)Nc4ccc(S(=O)(=O)O)c5cc(S(=O)(=O)O)cc(S(=O)(=O)O)c45)ccc3C)c2)c1,HBL-1,,"0.5 µM, 120 h",,viability,113%
COc1cnc2cccc(N3CCc4c(cc(Cn5ccnc5C)cc4-c4cn(C)nc4C(F)(F)F)C3=O)c2c1,SU-DHL-5,"cell growth, inhibitor",120 h,,EC50,0.0173 µM
